Measured values gathered from unrelated publications.
Compare with care: the assays were run in different laboratories. Several values in a cell are separate wells, animals, samples, runs or records. ± gives the spread as reported. In brackets after ≈: the same amount, converted by molar mass.

| SMILES | tested on | assay | system | conditions | scale | endpoint | value |
| --- | --- | --- | --- | --- | --- | --- | --- |
| COc1cccnc1-c1nc2ccccn2c1Nc1ccc(F)cc1 | Leishmania infantum | – | macrophages, MHOM/MA(BE)/67/ITMAP263, amastigote | – | – | IC50 | 31.1 µM and 33.2 µM |
| COC(=O)[C@@H](CCSC)NCc1cc2ccccc2nc1SC | Pseudomonas aeruginosa | – | – | 2 µg/mL, added: pentamidine 50 µM | relative to: control | growth | 100% |
| CC1CCC(C(C)C)C(OC2=C(Cl)C(=O)c3ccccc3C2=O)C1 (centres unmarked) | Bacillus cereus | – | MTCC 430 | 10 µg/mL | – | zone of inhibition | 18 mm |
| N=C(N)c1ccc(OCCCCCOc2ccc(C(=N)N)cc2)cc1 | Escherichia coli | checkerboard | mcr-1 polymyxin-resistant | concentration not given, 20 h, added: rifampicin | – | MIC of compound in combination | 50 µg/mL |
| CO[C@H]1[C@H](O[C@H]([C@H]2O[C@@H](n3ccc(=O)[nH]c3=O)[C@H](O)[C@@H]2O)[C@H](NCCCNC(=O)[C@@H](NC(=O)[C@@H](NC(=O)N[C@H](C(=O)O)C(C)C)[C@@H]2CCN=C(N)N2)[C@@H](O)C(C)C)C(=O)O)O[C@H](CN)[C@H]1O | Bacillus cereus | microplate alamar blue | NRRL B-568 | – | – | MIC90 | > 35 µg/mL |
| COc1cccc2nc(-c3ccccn3)c(Nc3ccc(F)cc3)n12 | Leishmania infantum | – | macrophages, MHOM/MA(BE)/67/ITMAP263, amastigote | – | – | IC50 | 8.64 µM and 8.11 µM |
| Nc1nc(/C(=C/CC(=O)O)C(=O)N[C@@H]2C(=O)N3C(C(=O)O)=CCS[C@H]23)cs1 | THP-1 | pyroptotic LDH release | – | 2 µM, 40 min, added: LPS then nigericin | – | inhibition | 0.119% |
| Cc1cc(OC(C)C)ccc1C(=O)C(C)(C)NC(=O)c1sccc1C | Alternaria alternata | mycelial growth | Japanese pear pathotype, PSA medium | 20 °C, suspension concentrate 400 g/L | – | EC50 | 0.99 µg/mL (≈ 2.75 µM) |
| COC[C@H]1O[C@@H]2O[C@H]3[C@H](OC)[C@@H](OC)[C@@H](O[C@H]4[C@H](OC)[C@@H](OC)[C@@H](O[C@H]5[C@H](OC)[C@@H](OC)[C@@H](O[C@H]6[C@H](OC)[C@@H](OC)[C@@H](O[C@H]7[C@H](OC)[C@@H](OC)[C@@H](O[C@H]8[C@H](OC)[C@@H](OC)[C@@H](O[C@H]1[C@H](OC)[C@H]2OC)O[C@@H]8COC)O[C@@H]7COC)O[C@@H]6COC)O[C@@H]5COC)O[C@@H]4COC)O[C@@H]3COC | Escherichia coli | LuxR reporter, agonist | DH5α sensor strain | 100 µM | – | bioluminescence | 793 ± 25 RLU |
| CC(C)c1ccc(/C=C2\N=C(SCc3ccccc3)N(c3ccccc3)C2=O)cc1 | Bacillus cereus | – | ATCC 14579 | concentration not given | – | inhibition zone diameter | 0 ± 0.13 mm |
| Cn1cc(-c2ccc(-c3cncc(Cl)c3N3CCC4(CCNC4=O)CC3)cc2)cn1 | COLO 205 | microarray, item: NRP1 | – | concentration not given, 2 h, gene set Neuropilin-1 | relative to: untreated cells | fold change in expression | 3.2 |
| CC(=O)NC[C@H]1CN(c2ccc(N3CCOCC3)c(F)c2)C(=O)O1 | Streptococcus pneumoniae | – | penicillin-resistant, 10 isolates | serum 0% | – | MIC50 | 1 µg/mL (≈ 2.96 µM) |
| CC(C)(C)NC(=O)[C@H]1CC[C@H]2[C@@H]3CC[C@H]4NC(=O)C=C[C@]4(C)[C@H]3CC[C@]12C | THP-1 | pyroptotic LDH release | – | 2 µM, 40 min, added: LPS then nigericin | – | inhibition | -21.9% |
| COc1ccc(-c2c(-c3ccccn3)nc3n2CCC3)cc1OC | Leishmania infantum | – | macrophages, MHOM/MA(BE)/67/ITMAP263, amastigote | – | – | IC50 | 1.74 µM and 2.38 µM |
| CC(C)n1ncc2c(C(=O)NCC3(C)CNC3)cc(C3CC3)nc21 | Enterovirus D68 | viral replication | RD, recombinant wild-type US/MO/14-18947 | 0.03 µM | relative to: untreated | plaque area | 89.5% and 105% |
| CSc1ccc2nc(-c3ccccn3)c(Nc3ccc(F)cc3)n2c1 | Leishmania infantum | – | macrophages, MHOM/MA(BE)/67/ITMAP263, amastigote | – | – | IC50 | 8.11 µM and 8.3 µM |
| O=C(/C=C/c1ccccc1O)/C=C/c1ccccc1C(F)(F)F | Aedes aegypti | larval mortality | fourth instar larvae | 72 h | – | LC50 | 17.3 µM |
| O=C(O)CNC(=O)Cc1ccccc1 | – | – | ventricular cardiomyocytes, C57BL/6 mouse | dose not given, 0.604 s | – | sarcomere length | 1.67 µm |
| O=[N+]([O-])c1ccc(N2CCN(S(=O)(=O)c3ccc(F)cc3)CC2)cc1NCc1cccnc1 | Aedes aegypti | – | – | 100 µM, 48 h, 1 instar larvae | – | larval mortality | > 80% |
| COC(=O)c1cc(N)cc(NS(=O)(=O)c2ccc(OC)cc2)c1 | Leishmania infantum | intracellular amastigote growth | U-937 macrophages and HeLa | – | relative to: IC50 HeLa over IC50 amastigotes | selectivity index | 0.5 |
| Fc1ccc(Nc2c(-c3ccccn3)nc3ccc(F)cn23)cc1 | Leishmania infantum | – | macrophages, MHOM/MA(BE)/67/ITMAP263, amastigote | – | – | IC50 | 8.64 µM and 8.3 µM |
| O=C(/C=C/c1ccc(O)c(O)c1)O[C@@H]1C[C@](O)(C(=O)O)C[C@@H](O)[C@H]1O | human immunodeficiency virus 1 | viral replication | TZM-bl cells, BaL (CCR5-tropic) | 48 h | – | IC50 | > 100 µM |
| Fc1cccc(N/N=C/c2ccc(-c3ccc(/C=N/Nc4cccc(F)c4F)cc3)cc2)c1F | Candida and Aspergillus | – | – | concentration not given, strain panel | – | antifungal activity | inactive |
